Experimental data from different studies.
Every numbered part comes from another study and shows a few of its results, in no order.

Set 1
Target: Interferon regulatory factor 7, full length, phosphomimetic (IRF7, Homo sapiens, UniProt Q92985, residues 1-503, S101K/S471D/S472D/S475D/S476D/S477D/S483D/S484D/S487D)
Method: protein-binding microarray
Form: double-stranded DNA, one strand shown
Matrix: in vitro
Tested at: 250 nM
Setting: 60-bp whole probe
Added: salmon DNA 0.4 mg/ml
Baseline: random background probes
Direction: higher = stronger binding
Shared flanks, not repeated: GCCTAGCAC … GTCTTGATTCGCTTGACGCTGCTG
Target sequence (chain): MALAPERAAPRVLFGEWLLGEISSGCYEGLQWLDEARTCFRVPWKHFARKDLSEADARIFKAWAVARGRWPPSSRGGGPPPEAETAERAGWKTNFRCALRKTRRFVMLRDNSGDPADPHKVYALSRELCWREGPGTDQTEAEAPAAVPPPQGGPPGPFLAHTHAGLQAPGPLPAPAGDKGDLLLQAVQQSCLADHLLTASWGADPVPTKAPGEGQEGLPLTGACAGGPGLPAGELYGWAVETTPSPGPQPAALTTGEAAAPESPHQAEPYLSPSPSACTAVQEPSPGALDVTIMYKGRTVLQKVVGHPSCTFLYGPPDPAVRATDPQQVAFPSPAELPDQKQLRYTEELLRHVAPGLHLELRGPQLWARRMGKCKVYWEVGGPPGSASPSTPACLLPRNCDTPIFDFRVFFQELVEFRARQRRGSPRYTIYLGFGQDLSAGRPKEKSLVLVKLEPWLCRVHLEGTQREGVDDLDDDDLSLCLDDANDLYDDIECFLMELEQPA
Strand	log fluorescence [z-score]
GACGGTAACGGACTGGGGACGTGCTAG	-0.23
TCACTGCTACCCTCTGAAACTGTGCTA	-0.756
TCAACTTTAGGTTCCCAACTGTGCTAG	0.419
TTAGATTTCAGTATCGATGAGTGCTAG	0.505
GACGGTTCCCTTTTCCTCACGTGCTAG	3.5
TTAGAACTGAGACGGGATTAGTGCTAG	-0.578
TTAGGTTTCGACTTTGGGTTAGTGCTA	9.38
GACGGTCTGCTACTGCTGACGTGCTAG	-0.803
GACGGTTCCGGTTTCGGAACGTGCTAG	9.51
GACGGTCTCCTTATCCTGGCGTGCTAG	0.223
GACGATTTCGGGTTTCGGGACGTGCTA	3.68
TTAGCACTGGGTCTCGGTTAGTGCTAG	0.476
TAAGGTATCCTACTGCTTTAGTGCTAG	-0.029
TTAGATTTCGGGTCTGGATTAGTGCTA	0.728
GAAGGACTGGGTCTCGGGACGTGCTAG	-0.134
ATTACTCCCCAACTCGCCTTGTGCTAG	1.01
GACGGTTTCTTTTTCCTGACGTGCTAG	6.3
TTAGGTTTCGACGCTGGGTTAGTGCTA	1.73
CTAGGTTTCGGGTTTCGGTTAGTGCTA	12.5
TTACGTCTCCTACTGCTTTAGTGCTAG	0.256
GACGGTTTCGGGTTTAGGGACGTGCTA	10.7
TTAGGTATCCTTTTCCTTTGGTGCTAG	1.52
GACGATATCAGACTGGAGACGTGCTAG	-0.371
CTAGATTTCAGTATCGATTAGTGCTAG	1.5
TTAGGTTTCGCCTATCGGTTAGTGCTA	3.84

Set 2
Target: Ras GTPase-activating protein-binding protein 1, RRM domain (G3BP1, Homo sapiens, UniProt Q13283)
Chain of UniProt Q13283 (whole entry, looked up): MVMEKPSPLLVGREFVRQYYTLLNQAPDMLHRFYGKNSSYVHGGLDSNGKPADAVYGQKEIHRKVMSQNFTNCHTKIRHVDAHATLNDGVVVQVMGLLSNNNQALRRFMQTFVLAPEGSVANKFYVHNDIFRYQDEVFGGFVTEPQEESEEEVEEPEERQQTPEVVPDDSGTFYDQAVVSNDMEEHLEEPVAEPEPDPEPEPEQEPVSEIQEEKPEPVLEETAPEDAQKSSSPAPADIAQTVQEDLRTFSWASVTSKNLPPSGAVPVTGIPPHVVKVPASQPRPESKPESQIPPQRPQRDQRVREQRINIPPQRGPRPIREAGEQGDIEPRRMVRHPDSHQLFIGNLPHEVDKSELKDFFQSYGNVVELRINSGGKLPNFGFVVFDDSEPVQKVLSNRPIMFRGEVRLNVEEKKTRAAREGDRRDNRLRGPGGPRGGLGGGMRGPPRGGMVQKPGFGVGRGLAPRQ
Method: RNA Bind-n-Seq
Form: RNA
Matrix: in vitro
Tested at: 1 µM
Setting: whole 134-nt RNA, ends assumed
Added: 150 mM KCl
Baseline: input library
Direction: higher = stronger binding
Shared flanks, not repeated: GGGAGUUCUACAGUCCGACGAUC … UGGAAUUCUCGGGUGUCAAGG
Strand	log2 enrichment
ACCAUGCAGGAAAGCAUCUUUGGGAAGUGGGGCAAGGGGGGGAUAGGGAGGGGGGUAACACUUUGGGAACAGGUGGUCCCAGGUCGUUUC	-0.391
ACCAUGCAGGUGGGCAUCUUUGGGAAGUGGGGCAAGGGGGGGAUAGGGAGGGGGGUAACACUUUGGGAACAGGUGGUCCCAAGUCGUUUC	0.449
AAGUCCUGUGCUACACAUCGUAUGUACCGAAUCGGGAAAGGGUUUUUGGGUUUGGGAAAGUAUUAUGUUACGCCGUUCGGAUCUGCACUU	0.605
CCUGUGCUACACAUCGUAUGUACCGAAUCGGGAAAAAAGGGGAAAAAAGGAAAAAAGGGGAAAGUAUUAUGUUACGCCGUUCGGAUCUGC	0.0455
GUCCUGUGCUACACAUCGUAUGUACCGAAUCGGGAAAAAGGGAAAGGGUUUUUUUGGGAAAGUAUUAUGUUACGCCGUUCGGAUCUGCAC	0.113
CUCAAGUCCUGUGCUACACAUCGUAUGUACCGAAUCGGGGCCGGGCCGGCCGGGAAAGUAUUAUGUUACGCCGUUCGGAUCUGCACUUCC	-0.546
AGUCCUGUGCUACACAUCGUAUGUACCGAAUCGGAAAAAGGGAAAAAGGGAAAAAGGGAAAGUAUUAUGUUACGCCGUUCGGAUCUGCAC	-0.0476
AAGUCCUGUGCUACACAUCGUAUGUACCGAAUCGGGAAAGGGAAAGGGUUUUUGGGAAAGUAUUAUGUUACGCCGUUCGGAUCUGCACUU	0.535
UGGGAGGUGGAUUUUGUUUAUUUUUUUAGCUCAUUUCCAGGGGUGGGAUUUUUUUUUUAAUAUGUGUCAUGAAUAAAGUUGUUUUUGAAA	1.67
UCAAGUCCUGUGCUACACAUCGUAUGUACCGAAUCGGGCCCGGCCCGGCCCGGGAAAGUAUUAUGUUACGCCGUUCGGAUCUGCACUUCC	-0.691

Set 3
Target: RING finger protein unkempt homolog, zinc fingers 1-6, GST-SBP tag (UNK, Homo sapiens, UniProt Q9C0B0, residues 30-357)
Method: RNA Bind-n-Seq
Form: RNA
Matrix: in vitro
Tested at: not given
Setting: RNA with constant flanks, human and mouse sites, ends assumed
Baseline: input RNA pool
Direction: higher = stronger binding
Shared flanks, not repeated: GGGAGUUCUACAGUCCGACGAUC … CAACAGAGGAUUGAGCAUCA
Target sequence (chain): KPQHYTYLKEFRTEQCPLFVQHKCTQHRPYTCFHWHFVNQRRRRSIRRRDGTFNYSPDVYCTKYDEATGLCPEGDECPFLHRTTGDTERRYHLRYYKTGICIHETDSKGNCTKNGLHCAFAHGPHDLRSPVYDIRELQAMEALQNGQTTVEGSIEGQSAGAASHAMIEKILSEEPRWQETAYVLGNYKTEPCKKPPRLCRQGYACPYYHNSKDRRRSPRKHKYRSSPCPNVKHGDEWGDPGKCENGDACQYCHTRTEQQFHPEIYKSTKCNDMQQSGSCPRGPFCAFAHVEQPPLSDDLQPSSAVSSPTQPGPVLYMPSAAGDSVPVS
Strand	bound/input enrichment
GAUAAUGACAAAGAAGAUGGCUGCUUCUAUUUCAGGGAUAAAGUAAUUCCUAAUAAAGUGGGGACAUAUUGUAUCCAGUUUGGUUUUAUGAUGGAUAAAACAAAUAUUCUCAACAGUGAA	0.201 ratio
GAAGACAAGCCAGUGAACGUUAAUGAAGUACCUGACUAUCAAGAAGACAUUCACACGUACCUUAGGGAAAUGGAGGUUAAAUGUAAACCUAAAGUGGGUUACAUGAAGAGGCAGCCAGAC	0.285 ratio
UCCAGCGCAGAGCCCCGUCCUGAUUGAUCGCAUCGCGGGGCUCAGAUGACUGUAAAAUGAAUAGAUGAAAUUCUUGCUUCUCGAAGAUUUUCUUGGGCAUCUCCCGGAAAGUGCGUUUUA	0.218 ratio
AUUUUUUAUGUAGGUGAGCUAACACAGUGUAUCUAAUUGAAGAAUUCUGAUUAAUUUGUAAUAGAUAAGUUGUAUAAAAUUUUCAUACCUUAAAGUGUUUUAGAUUACUCUUCAAGUGAA	2.11 ratio
AGUAUAUGUAAAUGUCUGUUUUUCAUAAUUGCUCUUUAUAUUGUGUGUUAUCUGACAAGAUAGUUAUUUAAGAAACAUGGGAAUUGCAGAAAUGACUGCAGUGCAGCAGUAAUUAUGGUG	0.434 ratio
CUGGUGGAGGAAGAUGAUGAGAUAAACCGAGACUGGUUGGAUUGGACCUAUUCCGCAGCGACGUUUUCUGUUUUCCUCAGCAUCCUUUACUUCUACUCCUCGCUGAGCAGAUUUCUCAUG	0.0968 ratio
UUUCUUAUUUUGAUAUUUUUUUAAUGUUGUGGAUGAAUGCCAGCUUUCAGACAGAGCCCACUUAGCUUGUCCACAUGGAUCUCAAUGCCAAUCCUCCAUUCUUCCUCUCCAGAUAUUUUU	4.23 ratio
CCUUUCUGUUACUUGACUCUUCCAUUGCCUAUGAAAAAAGAACGUAGCUUGGAAGUUUAUUUAGUUAGAAUGGAUCCACUUGCUAAACCUAUGCAAUACAAAGUUAUUGUGCCCAAAAUU	0.177 ratio
CAUACACAUUCUUUCCUUGGAGAAGAUCUUGUCCAUCAGGAAGCAUCGAUCAAUCUACCUCAUUUUUAUCUGCGUAAAAGAGUGUGUCUGCACACAAGUCCAUUUCAUUGUGUCCAGCCA	0.179 ratio
GGCUUCAGGAACAUCAUAGCAGAUCCUGUCACCUUCAAGACCAAAUCGAGCUAUGUUGCCUUAGCUACCUUGCAAGCCUACACUUCUAUGCAUCUUUUUUUCCAGUUCAAGACAACAUCC	0.294 ratio
CCUGCUGUGAACAUCCAGCCCGACAUUGCUGGAGGUUGGGACUGGCACACCAAACCAGGAGGUUUUGGAAUGGGGAGCAAAUCCGCUGCCACCAGCCCGACAGGCUCAUCACAUGGCACC	0.0811 ratio

Set 4
Target: RNA binding protein fox-1 homolog 2, RRM domain, GST-SBP tag (RBFOX2, Homo sapiens, UniProt O43251-10, residues 100-194)
Method: RNA Bind-n-Seq
Form: RNA
Matrix: in vitro
Tested at: 365 nM
Setting: natural RNA segment, single round, ends assumed
Baseline: no-protein control
Direction: higher = stronger binding
Shared flanks, not repeated: GGGAGUUCUACAGUCCGACGAUC … UGGAAUUCUCGGGUGCCAA
Construct (chain): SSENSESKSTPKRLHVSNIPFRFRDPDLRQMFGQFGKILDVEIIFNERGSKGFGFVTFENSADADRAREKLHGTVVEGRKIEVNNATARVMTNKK
Strand	RBNS enrichment (R)
AAUAGUUUUUAUUUUUGAACAUUCAACUUUGGUUCUUCAAAGUAAUCUUUAAACAUGGGAAUAUGUUUUCAAGACAAUUUAUAGGACAUACUUAUGUAGUUGGUGAGGUC	0.444
AAAGAGGAUGAUUUUCCUCAGAGAGAAGUGCCAGCGCCCUCCAGAGCUGUGAUCCAGGAUGGCAUGCUCACGUGCGGAAUGCAAUUUUGCCACCGGUUUGUAAUGUGGGU	1.06
AAUUCUUCUCAGAAACUGGAAGACAUUCCUCUGUGUUUGCCCCUUCCUGACCCAAGAGACACCCUAUACAUGAGGGCCCAGCUCUUUACCUCUGGGGACAGCUGGCAUGC	0.512
UGUGACACUCAGGCCUCAGAUGAGCCUCGCUUGCCUUCACUGCUUCUGUUUUAAACAGUAGUAAAAAACUGGCGUUCAAGGCAGAGUCCACAGGUGCUUAAAGGACACUU	0.473
GUACCAAUAUGGUAGACCUCUUUCACAGUCAAUCUCAGCCCUGGAAAUUAUGUUCUACUAUGCUCAGGCCCAAAGGCAAUGUGGGGGCCAAAGGGCAACUGGCCUUCUGA	1.47
AAAAAUACAAGCCAGGAUUCUGCUCCCAAACCUUCAGGACAAUGGGUAGUCCCCAUGGGACCUUAAAAGACCCAUAGCUGAGUAGUCUCCCUUGUCUACCCUGCUUUAAG	0.38
ACCUUAUUGGAUAUUUGAUAUUUGGUUAUUUAAUCACAGUCAUCUUUAACAGCUUACACUGAUUGGUGUUUUAUCUCCUGUGAUCCUUUGAUGGCUUUUUUUGCCUACCA	0.334
CUGCCUUGGUUCCUACCACUCUGGUGUAGACAGAGGACUUUGUCCAAGUCUCACACUAAACAUGCCCGGGCUUCGAUGUGCCUGGAGGAUUUCCCCACAGGGACCCACGC	0.285
ACUCUGCUUCCUUGUGGGUGGCCUUUUUUUACCGAUCCCCUUUUUUAUUUUUUACAACCGGACCUCCACCCCCAACUUCCUCCAGCCCAGCUGGGCUUCCUUUGUUGGAG	0.525
UCCUGCAUUCUGAAAUACAUUGGCCUAGAACAUUUUAUCCCAGGCAUUUUUGAAUAGAAAACAGUUGCGUGCUUUUAUUGAAGAUUGUUAAAAUAAUCACCAUAGUAACU	0.937
UAAUAACAAUAAGGAGUAAGCCACCUUUUAUAGGCACCCUGUAGUUUUAUAGUUCUUAAUCUAAACAUUUUAUAUUUCCUUCUUUUGGAAAAAACCUACAUGCUACAAGC	0.775
UUUUGUGGUUAAACUUCUAAAGUUUUGAACUGUAAGCAGAAUUUUGUUUUGUGAUAUUUUAUUGUAUAAACUGUUAAUGAGAGGCACAGCUAAUUGUACAUAUCAAUAUA	1.1

Excerpt of the above (set 1):
Strand	log fluorescence [z-score]
GACGGTTCCCTTTTCCTCACGTGCTAG	3.5
TTAGAACTGAGACGGGATTAGTGCTAG	-0.578
TTAGGTTTCGACTTTGGGTTAGTGCTA	9.38
GACGGTCTGCTACTGCTGACGTGCTAG	-0.803
GACGGTTCCGGTTTCGGAACGTGCTAG	9.51
GACGGTCTCCTTATCCTGGCGTGCTAG	0.223
GACGATTTCGGGTTTCGGGACGTGCTA	3.68
